# Published values from different studies.
# Numbered parts are unrelated; each lists some results of a single study.

# Set 1
# Target: Interferon regulatory factor 7, full length, phosphomimetic (IRF7, Homo sapiens, UniProt Q92985, residues 1-503, S471D/S472D/S475D/S476D/S477D/S483D/S484D/S487D)
# Technique: protein-binding microarray
# Form: double-stranded DNA, one strand shown
# Medium: in vitro
# Concentration: 2200 nM top
# Setting: 60-bp whole probe
# With: salmon DNA 0.4 mg/ml
# Relative to: random background probes
# Direction: higher = stronger binding
# Shared flanks, not repeated: GCCTAGCAC … GTCTTGATTCGCTTGACGCTGCTG
# Construct (chain): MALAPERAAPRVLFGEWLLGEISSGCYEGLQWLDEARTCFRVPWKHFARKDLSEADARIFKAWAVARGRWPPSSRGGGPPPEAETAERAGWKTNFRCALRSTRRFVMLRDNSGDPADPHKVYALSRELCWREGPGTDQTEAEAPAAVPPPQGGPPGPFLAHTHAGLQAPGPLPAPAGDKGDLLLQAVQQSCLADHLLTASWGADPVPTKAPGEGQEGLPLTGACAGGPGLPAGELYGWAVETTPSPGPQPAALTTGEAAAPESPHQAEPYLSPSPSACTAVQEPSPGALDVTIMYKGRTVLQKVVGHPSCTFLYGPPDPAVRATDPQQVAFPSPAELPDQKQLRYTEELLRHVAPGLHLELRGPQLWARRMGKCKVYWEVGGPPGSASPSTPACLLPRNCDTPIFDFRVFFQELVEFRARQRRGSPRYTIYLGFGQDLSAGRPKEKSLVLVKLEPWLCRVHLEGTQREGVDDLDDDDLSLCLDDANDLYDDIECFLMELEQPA
Strand,fitted relative affinity
TTAGGTTACCTACTGCTTTAGTGCTAG,0.443 z-score
TTAGGACTGGGGACTGAGTTAGTGCTA,-0.786 z-score
GACGATTTCCGTATCGAGACGTGCTAG,2.03 z-score
GACGGACTGCTCTTCCTGACGTGCTAG,0.351 z-score
TCAGTTTTCTAATGTTTTACTGTGCTA,1.91 z-score
TGTTCATTTTCAAAACTGTTGTGCTAG,1.5 z-score
TTAGGACTGGGTATCAGTTAGTGCTAG,-0.641 z-score
GACGGTCACCTTCTCCTGACGTGCTAG,0.63 z-score

# Set 2
# Target: Histone acetyltransferase KAT6A, both winged helices, GST fusion (KAT6A, Homo sapiens, UniProt Q92794, residues 1-181)
# Technique: protein binding microarray
# Form: double-stranded DNA, one strand shown
# Medium: in vitro
# Concentration: not given
# Setting: 8-mer, flanks averaged, mean of 2 arrays, mostly near background
# Relative to: not given
# Direction: higher = stronger binding
# Residues (chain): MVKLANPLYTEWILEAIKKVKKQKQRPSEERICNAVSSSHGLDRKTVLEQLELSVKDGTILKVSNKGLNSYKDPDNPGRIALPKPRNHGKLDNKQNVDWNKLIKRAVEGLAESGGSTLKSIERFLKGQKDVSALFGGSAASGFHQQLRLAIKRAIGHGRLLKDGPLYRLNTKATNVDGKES
Strand,E-score
ACCCGATC,0.103
ACTAAGTG,-0.177
ACCTACTA,-0.0339
TGGATAAA,-0.00602
ACGGAATC,0.307
GATCACGA,-0.0843
AGAAAGAA,-0.0969
CACAGAGG,-0.199

# Further values, each from its own experiment
# Concentration: 10 µM
Structure (SMILES),target or system,assay,setting,scale,endpoint,value
C#C[C@]1(O)CC[C@H]2[C@@H]3[C@H](C)CC4=C(CCC(=O)C4)[C@H]3CC[C@@]21C,Sarcocystis neurona,parasite growth,96 h,,inhibition,-6.2%
CCn1cc(C(=O)O)c(=O)c2cc(F)c(N3CCNC(C)C3)c(F)c21 (stereo not drawn),mouse MPNST tumor cells,"high-content immunofluorescence imaging, measured: nuclear SOX9","12 h, mean of 2 replicates","relative to: DMSO control, higher = more nuclear SOX9",nuclear SOX9 intensity,108 % of DMSO

# For quick reference, copied from above (further values, each from its own experiment):
Structure (SMILES),target or system,assay,setting,scale,endpoint,value
C#C[C@]1(O)CC[C@H]2[C@@H]3[C@H](C)CC4=C(CCC(=O)C4)[C@H]3CC[C@@]21C,Sarcocystis neurona,parasite growth,96 h,,inhibition,-6.2%
CCn1cc(C(=O)O)c(=O)c2cc(F)c(N3CCNC(C)C3)c(F)c21 (stereo not drawn),mouse MPNST tumor cells,"high-content immunofluorescence imaging, measured: nuclear SOX9","12 h, mean of 2 replicates","relative to: DMSO control, higher = more nuclear SOX9",nuclear SOX9 intensity,108 % of DMSO
